Results pooled from the literature.
Protocols differ between the studies behind these lines. Values joined by “and” are separate records of one study, mostly repeats; a detail may differ.
Target: Protein kinase C alpha type (PRKCA, Homo sapiens, UniProt P17252)

Structure (SMILES)	test	setting	scale	quantity	result
O=c1c(-c2ccc(Cl)c(CN3CCOCC3)c2)coc2cc(O)ccc12	enzyme activity, inhibitor	1 µM	–	remaining activity	100%
c1ccc2c(Nc3cc(C4CCC4)[nH]n3)nc(Nc3ccc4nc[nH]c4c3)nc2c1	enzyme activity, inhibitor	0.25 µM	–	remaining activity	92%
CCn1cc(C(=O)O)c(=O)c2c(N)c(F)c(NC3CCCCC3)cc21	kinase activity	0.1 µM, with: ATP at Km	–	inhibition	-4.5%
Cc1cccc(O[C@H]2CCC[C@@H](C(C)CNCc3ccncc3)C2)c1 (relative stereo)	enzyme activity	10 µM	–	inhibition	-4%
Cc1[nH]nc2c1N=C(c1ccccc1Cl)c1cnc(N3CCOCC3)cc1N2	enzyme activity, inhibitor	0.5 µM	–	inhibition	-0.8%
C=CC(=O)Nc1cccc(-c2cnc3[nH]cc(C(=O)NC(C)(C)C)c3n2)c1	enzyme activity, inhibitor	0.1 µM	–	inhibition	34%
CN1CCN(Cc2ccc(-c3ccc(CO[C@H]4CCC[C@@H]4NC(=O)c4cc(-c5cnn(C)c5)cnc4N)cc3)cc2)CC1	enzyme activity, inhibitor	0.1 µM	–	inhibition	14%
COc1ccc(NC(=O)Nc2ccc3c(c2)C(=O)N(C(C)CO)CC(C)C(CN(C)Cc2ccc4c(c2)OCO4)O3)cc1 (centres unmarked)	kinase activity, KinaseProfiler	0.03 µM, species human	baseline: control	remaining activity	82%
CNC(=O)C[C@H](Cc1ccc(C#N)cc1)NC(=O)c1cc(-c2ccc(CN[C@H](C)c3ccc(C)cc3)o2)ccc1Cl	enzyme activity, inhibitor	1 µM	–	activity vs control	96%
COCC12C(=O)NC3C4(C(OC)CC1O)C1CC5(O)C(OC)C(O)C(OC(C)=O)(C1C5OC(=O)c1ccccc1)C3(O)C(OC)C24 (centres unmarked)	kinase activity, inhibitor, ProQinase kinase profiling	25 µM	baseline: control	remaining activity	96% and 97%
Cc1cccc(-c2ccc3nc(NC(=O)C4CCCO4)nn3c2)c1 (centres unmarked)	enzyme activity, Dundee kinase panel	10 µM	–	remaining activity	87%
NC(=O)[C@@H](O)C[C@H]1CCc2sc3ncnc(O[C@H]4CC[C@H](N5CCOCC5)CC4)c3c21	enzyme activity, inhibitor	10 µM	–	inhibition	7%
Cc1cccc(-c2ccc3nc(NC(=O)C4CCOCC4)nn3c2)c1	enzyme activity, Dundee kinase panel	10 µM	–	remaining activity	97%
COc1ccc(O)cc1-c1c[nH]c2ncc(-c3cncc(C(=O)N(C)C)c3)cc12	binding, competition with immobilised ligand	0.2 µM	–	inhibition	-0.71%
